Published values gathered from unrelated publications.
± gives the spread as reported.

Compound	cell line	assay	setting	IC50
CC#CC(=O)N1CCC[C@H]1c1nc(-c2ccc(C(=O)Nc3ccccn3)cc2)c2c(N)nccn12	TMD8, parental	cell viability, CellTiter-Glo	4 days	0.014 µM
C=CC(=O)N1CCCC(n2c(=O)c3ncccc3n(Cc3ccc(Oc4ccccc4)cc3)c2=O)C1 (stereo not drawn)	JVM-2	cell growth or viability, MTT	72 h	2.5 µM
Cc1cc2cc(C(=O)N(Cc3ccc(C(F)(F)F)cn3)[C@H](C)c3ncccn3)ccc2nc1N	HCT-116 MTAP-deleted	global SDMA level, item: SDMA	72 h	0.0002 µM
C=CCc1c(O)cc2c(c1O)C(=O)CC(c1ccc(O)cc1)O2 (stereo not drawn)	normal pig cell line	cytotoxicity, MTT	48 h	> 120 µM
O=C(Nc1cc(C(=O)Nc2ccc3[nH]ncc3c2)ccc1F)Nc1cc(C(F)(F)F)ccc1F	KM12	cell growth or viability, ATP luminescence	72 h	38.9 µM
Cc1cnc2nc1Nc1cccc(c1)COCCCCOCc1cc(ccc1OCCN1CCCC1)N2	SET-2	cell growth or viability, CCK-8	–	9.46 µM
CC(C)OC(=O)[C@H](CO)NCc1cc(Cl)c(OCc2cccc(-c3ccccc3)c2Br)cc1OCc1cccnc1	HCT-8	cell growth or viability, MTT	–	> 10 µM
COc1cc(NC(=O)Nc2cc(C(F)(F)F)ccc2F)ccc1C(=O)Nc1ccc2[nH]ncc2c1	KM12	cell growth or viability, ATP luminescence	72 h	> 50 µM
CC(C)=CC1OC(C)(C)C2C=C3C(=O)C(Cl)=CC(O)C3C3C(O)C4OC4C(=O)C132 (stereo not drawn)	MGC-803	cell growth or viability, MTS	–	3.06 µM
CC(C)c1ccc(N(C)c2ccc3c(c2)OCC[C@H]3CNc2cnccc2C(=O)O)cc1	HuTu80	cell growth or viability, ATP luminescence	7 days	0.00436 µM
CC(=O)[O][Pt]([NH2])([NH2])([Cl])([Cl])[O]C(=O)CCCc1ccccc1	C13* cisplatin-resistant ovarian	cytotoxicity, MTT	72 h	1.02 ± 0.7 µM
CNS(=O)(=O)Nc1nccc(Cc2c(C)c3ccc(Oc4ncccc4F)cc3oc2=O)c1F	HCT-8	cell viability	7 days	0.051 µM
CCn1nc(Cl)c2c1-c1cnc(N)c(c1)O[C@H](C)c1cc(F)ccc1-c1nn(C)cc1C2	ALK-fusion cell lines	cell viability	–	< 0.0015 µM
O=C(NCc1cc(F)cc(F)c1)[C@@]1(O)CCN(c2ccc3[nH]ccc3c2)C1=O	CXF280 colon tumour	colony formation, soft agar clonogenic	–	> 10 µM
Cc1cc(Cl)cc(-c2ccnc3cc(CN4C(=O)C5C(C4=O)C5(C)C)sc23)c1C[C@@H]1CNCCO1 (stereo partly drawn)	CHP-212	cell viability, SRB	mean of replicates	0.488 µM
O=C(Nc1ccc(F)c(C(=O)Nc2ccc3[nH]nc(-c4ccccc4)c3c2)c1)Nc1cc(C(F)(F)F)ccc1F	KM12	cell growth or viability, ATP luminescence	72 h	> 50 µM
C[C@H](c1ccccc1)N1C(=O)C2=Nc3cc(Cl)ccc3CN2C1=S	healthy human PBMCs	cell viability, resazurin	–	2.3 ± 0.7 µM

Compound	cell line	assay	setting	IC50
NC(=O)c1ccc(-c2ccccc2Cl)c2c3c([nH]c12)CC[C@@H](N)C3	NCI-H446	cell proliferation	96 h	0.0756 µM
C[C@H](c1ccc(Br)cc1)N1C(=O)C2=Nc3ccccc3CN2C1=S	healthy human PBMCs	cell viability, resazurin	–	3 ± 0.7 µM
CCC(=CCc1c(O)cc2c(c1O)C(=O)CC(c1cc(OC)ccc1O)O2)CC (stereo not drawn)	normal pig cell line	cytotoxicity, MTT	48 h	> 120 µM
O=C(Nc1ccc(F)c(C(=O)Nc2ccc3[nH]ncc3c2)c1)Nc1cc(C(F)(F)F)ccc1F	KM12	cell growth or viability, ATP luminescence	72 h	41.8 µM
CCC(=CCc1c(O)cc2c(c1O)C(=O)CC(c1ccc(OC)cc1O)O2)CC (stereo not drawn)	normal pig cell line	cytotoxicity, MTT	48 h	10.6 ± 2.7 µM
Oc1ccc(C#Cc2cccc3c2C(c2ccc(O)cc2)(c2ccc(O)cc2)c2cc(O)ccc2-3)cc1	MGC-803	cell growth or viability, MTT	48 h	10.1 µM
Cc1cnc2nc1Nc1cc(ccc1F)COC/C=C/COCc1cc(ccc1OCCN1CCCC1)N2	SET-2	cell growth or viability, CCK-8	–	3.72 µM
CCOc1cncc(-c2ccc(NC(=O)C3(c4ccnc(NS(=O)(=O)C5CC5)n4)CCOCC3)nc2)n1	MKN-7	cell proliferation, CellTiter-Glo	72 h, Gastric cancer	10 µM
O=[N+]([O-])c1ccc(C=NNC(=S)Nc2ccccc2)o1	CAKI-1	cell growth or viability, resazurin	–	> 100 µM
C[C@H](c1ccccc1)N1C(=O)C2=Nc3ccc(Br)cc3CN2C1=S	healthy human PBMCs	cell viability, resazurin	–	2.2 ± 0.2 µM
COc1ccc(NC(=O)c2ccc3[nH]c(-c4ccc(N(C)C)cc4)nc3c2)cn1	Y79	cell growth, CellTiter-Glo	–	9.24 µM
O=Cc1ccc2c(c1C#Cc1ccc(O)cc1)C(c1ccc(O)cc1)(c1ccc(O)cc1)c1cc(O)ccc1-2	MGC-803	cell growth or viability, MTT	48 h	> 50 µM
CCC(=CCc1c(O)cc2c(c1O)C(=O)CC(c1cccc(OC)c1O)O2)CC (stereo not drawn)	normal pig cell line	cytotoxicity, MTT	48 h	10.9 ± 2.4 µM
C[C@H](c1ccccc1)N1C(=O)C2=Nc3ccc(Cl)cc3CN2C1=S	healthy human PBMCs	cell viability, resazurin	–	2.4 ± 0.5 µM
CC(=O)N(C)Cc1cccc(-c2cc3c(c(C(F)(F)F)c2)CCCC3N(C)C(=O)CCOCCOCCC(=O)N(C)C2CCCc3c2cc(-c2cccc(CN(C)C(C)=O)c2)cc3C(F)(F)F)c1 (stereo not drawn)	CHO-K1	protein synthesis	–	11.7 µM
Cc1ccc([N+](=O)[O-])cc1S(=O)(=O)N(C)/N=C/c1cnc2ccc(Br)cn12	M14	cell growth or viability	–	0.195 µM

Some of these lines once more:
Compound	cell line	assay	setting	IC50
C[C@H](c1ccc(Br)cc1)N1C(=O)C2=Nc3ccccc3CN2C1=S	healthy human PBMCs	cell viability, resazurin	–	3 ± 0.7 µM
CCC(=CCc1c(O)cc2c(c1O)C(=O)CC(c1cc(OC)ccc1O)O2)CC (stereo not drawn)	normal pig cell line	cytotoxicity, MTT	48 h	> 120 µM
O=C(Nc1ccc(F)c(C(=O)Nc2ccc3[nH]ncc3c2)c1)Nc1cc(C(F)(F)F)ccc1F	KM12	cell growth or viability, ATP luminescence	72 h	41.8 µM
CCC(=CCc1c(O)cc2c(c1O)C(=O)CC(c1ccc(OC)cc1O)O2)CC (stereo not drawn)	normal pig cell line	cytotoxicity, MTT	48 h	10.6 ± 2.7 µM
Oc1ccc(C#Cc2cccc3c2C(c2ccc(O)cc2)(c2ccc(O)cc2)c2cc(O)ccc2-3)cc1	MGC-803	cell growth or viability, MTT	48 h	10.1 µM
